Literature values as cited in several papers.
Each numbered part shows a few of the values that one paper quotes. ≈ marks a conversion by molar mass, not a printed value.

Block 1 — organism: Cryptosporidium parvum; technique: high-throughput screen; tested at: concentration not given
Structure (SMILES) | activity
CCCC(CCC)C(=O)O | inactive
C[C@H]1COc2c(N3CCN(C)CC3)c(F)cc3c(=O)c(C(=O)O)cn1c23 | inactive
NCC(=O)CCC(=O)O | inactive
COCCOC(=O)C1=C(C)NC(C)=C(C(=O)OC(C)C)C1c1cccc([N+](=O)[O-])c1 (stereo not drawn) | inactive
COCC1=C(C(=O)OC(C)OC(=O)OC(C)C)N2C(=O)[C@@H](NC(=O)/C(=N\OC)c3csc(N)n3)[C@H]2SC1 (stereo partly drawn) | inactive
O=C(O[C@H]1[C@H](Oc2ccccc2COC(=O)C2(O)C=CCCC2=O)O[C@H](CO)[C@@H](O)[C@@H]1O)c1ccccc1 (stereo partly drawn) | inactive
C[C@@H]1C[C@H]2[C@@H]3C[C@H](F)C4=CC(=O)C(Cl)=C[C@]4(C)[C@@]3(F)[C@@H](O)C[C@]2(C)[C@@]1(O)C(=O)CO | inactive
NS(=O)(=O)c1cc(C(=O)O)c(NCc2ccco2)cc1Cl | inactive
Cc1onc(-c2ccccc2)c1-c1ccc(S(N)(=O)=O)cc1 | inactive
CCC(=O)OCC(=O)[C@@]1(OC(=O)CC)[C@@H](C)C[C@H]2[C@@H]3CCC4=CC(=O)C=C[C@]4(C)[C@@]3(Cl)[C@@H](O)C[C@@]21C | inactive
Cc1nc2n(c(=O)c1CCN1CCC(c3noc4cc(F)ccc34)CC1)CCCC2 | inactive
O=[N+]([O-])c1cccc2cn[nH]c12 | inactive
CN(C)C(=O)C(CCN1CCC(O)(c2ccc(Cl)cc2)CC1)(c1ccccc1)c1ccccc1 | inactive
CC(CCc1ccccc1)NCC(O)c1ccc(O)c(C(N)=O)c1 (stereo not drawn) | inactive
CCC(C)(C)C(=O)O[C@H]1C[C@@H](C)C=C2C=C[C@H](C)[C@H](CC[C@@H]3C[C@@H](O)CC(=O)O3)[C@H]21 | inactive
CN1[C@@H]2CC[C@H]1C[C@@H](OC(=O)C(CO)c1ccccc1)C2 (stereo partly drawn) | inactive
CCOC(=O)CCC(=O)O[C@H]1[C@H](O[C@@H]2[C@@H](C)[C@H](O[C@H]3C[C@@](C)(OC)[C@@H](O)[C@H](C)O3)[C@@H](C)C(=O)O[C@H](CC)[C@@](C)(O)[C@H](O)[C@@H](C)C(=O)[C@H](C)C[C@@]2(C)O)O[C@H](C)C[C@@H]1N(C)C | inactive
COc1cc([C@@H]2c3cc4c(cc3[C@H](O)[C@H]3COC(=O)[C@H]23)OCO4)cc(OC)c1OC | inactive

Block 2 — target: dopamine transporter
SMILES | IC50 [nM]
CCN(CCO)CCCC(C)Nc1ccnc2cc(Cl)ccc12 (stereo not drawn) | > 10000
Cc1ccccc1N1CCN(CCc2nnc3n2CCCC3)CC1 | > 10000
CCN(CC)CCNC(=O)c1cc(Cl)c(N)cc1OC | > 10000

Mixed results
SMILES | tested on | assay | system | setting | scale | endpoint | result
Cc1ccc(Oc2ccc(NC(=O)CNc3ccccc3N3CCCC3=O)cc2)cc1 | Plasmodium falciparum | parasite growth | 3D7 parental |  |  | EC50 | 338 nM
CC(=O)O[C@@H]1CC[C@@]2(C)[C@@H](CC[C@]3(C)[C@@H]2C(=O)C=C2[C@@H]4[C@@H](C)[C@H](C)CC[C@]4(C)CC[C@]23C)[C@@]1(C)C(=O)O |  |  |  | oral |  | half-life | 4 h
COCCc1ccc(-c2c(C)nc3c(N4CCOCC4)ccnn23)cn1 | PDE1B |  |  |  |  | Ki | 3400 nM
Nc1cc(C(F)(F)F)c(-c2cc(N3CCOCC3)nc(N3CCOCC3)n2)cn1 |  |  | advanced solid tumour patients | dose not given, continuous daily dosing | relative to: patients | grade ≥3 rash | 7%
Nc1nc2c(ncn2COCCO)c(=O)[nH]1 |  |  | water | 2 |  | solubility | 1600 µg/mL (≈ 7.1 mM)
O=C([C@H]1C[C@H](O)CN1c1ccc(Cl)cc1)N1CC2COCC(C1)N2Cc1ccc(Cl)cc1 | CCR1 | biochemical |  |  |  | IC50 | 1200 nM
O=C(OCc1ccccc1)c1ccc(O)cc1 |  | octanol-water |  |  |  | logP | 3.56
C=C[C@@H]1C[C@]1(NC(=O)[C@@H]1C[C@@H]2CN1C(=O)[C@H](C(C)(C)C)NC(=O)O[C@@H]1C[C@H]1CCCCCc1nc3ccc(OC)cc3nc1O2)C(=O)NS(=O)(=O)C1CC1 | CYP2C9 | inhibitor | human liver microsomes |  |  | IC50 | > 100000 nM
CN(C)C(=O)Cn1cc(-c2nc([C@@](C)(c3ccc(-c4cnc(N)nc4)cc3)C3CC3)no2)cn1 | ALOX5AP | cellular activity |  |  |  | IC50 | 45 nM
COC(=O)N[C@H](C(=O)N1CCC[C@H]1c1nc(-c2ccc3c(c2)O[C@@H](c2ccccc2)n2c-3cc3cc(-c4c[nH]c([C@@H]5CCCN5C(=O)[C@@H](NC(=O)OC)C(C)C)n4)ccc32)c[nH]1)C(C)C |  |  | plasma |  |  | unbound fraction | ~1%
[N-]=[N+]=N[C@]1(CO)O[C@@H](n2ccc(N)nc2=O)[C@@H](F)[C@@H]1O | HIV-1 | viral replication | HEK-293T |  |  | EC50 | 0.063 nM
CS(=O)(=O)N1CCN(Cc2cc3nc(-c4cccc5[nH]ncc45)nc(N4CCOCC4)c3s2)CC1 |  |  | advanced solid tumour patients | 15 to 450 mg, continuous daily dosing | relative to: patients | grade ≥3 rash | 8%
Cc1ccccc1Oc1cc(-n2c(=O)cc(C(F)(F)F)[nH]c2=O)c2ccccc2c1 | BCAT2 | biochemical activity |  |  |  | IC50 | 10800 nM
CC(=O)c1ccc(-c2cccc(NC(=O)CCc3cccc4c3B(O)OC4)c2)cc1 | ovarian cancer cell line | cell proliferation |  |  |  | IC50 | 21 nM
CCCCOC(=O)c1ccc(O)cc1 |  | octanol-water |  |  |  | logP | 3.57

For quick reference, copied from above (mixed results):
SMILES | tested on | assay | system | setting | scale | endpoint | result
CN(C)C(=O)Cn1cc(-c2nc([C@@](C)(c3ccc(-c4cnc(N)nc4)cc3)C3CC3)no2)cn1 | ALOX5AP | cellular activity |  |  |  | IC50 | 45 nM
[N-]=[N+]=N[C@]1(CO)O[C@@H](n2ccc(N)nc2=O)[C@@H](F)[C@@H]1O | HIV-1 | viral replication | HEK-293T |  |  | EC50 | 0.063 nM
O=C(OCc1ccccc1)c1ccc(O)cc1 |  | octanol-water |  |  |  | logP | 3.56
CC(=O)O[C@@H]1CC[C@@]2(C)[C@@H](CC[C@]3(C)[C@@H]2C(=O)C=C2[C@@H]4[C@@H](C)[C@H](C)CC[C@]4(C)CC[C@]23C)[C@@]1(C)C(=O)O |  |  |  | oral |  | half-life | 4 h
